Experimental data collected from several papers.

`C=CC(=O)N1CC2C(=O)N(CCN(C)C)c3c(c4cc(Cl)c(-c5c(O)cccc5F)nc4n(-c4c(C)ccnc4C(C)C)c3=O)N2CC1C` (stereo not drawn) has a concentration of 0.23 µM (nude mouse, CSF; oral, 100 mg/kg, 1 h).
The concentration of `COc1cccc(C2CC(c3ccccc3Cl)Nc3nc(N)nn32)c1` (stereo not drawn) is reported as 11 µM (male CD-1 mouse, brain; intraperitoneal, 20 mg/kg, 1 h, single dose).
`Cc1ncsc1-c1ccc(CNC(=O)[C@@H]2C[C@@H](O)CN2C(=O)[C@@H](NC(=O)COCC(C)(COCCOCCOCCNC(=O)C[C@@H]2N=C(c3ccc(Cl)cc3)c3c(sc(C)c3C)-n3c(C)nnc32)COCCOCCOCCNC(=O)C[C@@H]2N=C(c3ccc(Cl)cc3)c3c(sc(C)c3C)-n3c(C)nnc32)C(C)(C)C)cc1` gave a concentration of 8710 ng/mL (male C57BL/6 mouse, plasma; intravenous, 5 mg/kg, 30 min, single dose).
`CC(C)n1ncc2c(C(=O)NC[C@@H](C)N)cc(C3CC3)nc21` has a concentration of 828 ng/mL (female BALB/c mouse, plasma; intraperitoneal, 30 mg/kg, 4 h).
The concentration of `O=C1CCC(N2Cc3cc(C(=O)O)c(F)cc3C2=O)C(=O)N1` (stereo not drawn) is reported as 1340 ng/mL (male CD-1 mouse, plasma; intravenous, 1 mg/kg, 4.98 min).
`[2H]C([2H])(N)C([2H])([2H])NC(=O)c1cc(C2CC2)nc2c1cnn2C(C)C` has a concentration of 66.3 ng/mL (female BALB/c mouse, plasma; intraperitoneal, 50 mg/kg, 12 h).
For `CC(C)(O)c1ccc(N2Cc3c(ccnc3-c3ccc(F)cc3OCC(F)(F)F)C2=O)cc1`, the concentration was 773 ng/g (male C57BL/6 mouse, brain; oral, 10 mg/kg, 6 h).
`CC(C)n1ncc2c(C(=O)NCCN(C)C)cc(C3CC3)nc21` has a concentration of 89.6 ng/mL (female BALB/c mouse, plasma; intraperitoneal, 50 mg/kg, 3 h).
`Cc1cc(C(=O)N[C@@H](CC(=O)NC(C)(C)C)C(=O)NCCNC(=O)c2cccc(-n3cccn3)c2)no1` gave a concentration of 39.7 ng/mL (mouse, plasma; intravenous, 0.1 mg/kg, 5 min).

Some of these lines once more:
`Cc1cc(C(=O)N[C@@H](CC(=O)NC(C)(C)C)C(=O)NCCNC(=O)c2cccc(-n3cccn3)c2)no1` gave a concentration of 39.7 ng/mL (mouse, plasma; intravenous, 0.1 mg/kg, 5 min).
